Published values of several laboratories.
Compare with care: the assays were run in different laboratories.
Technique: steady-state kinetics
B1: ispG (Escherichia coli, UniProt P62620); chain MHNQAPIQRRKSTRIYVGNVPIGDGAPIAVQSMTNTRTTDVEATVNQIKALERVGADIVRVSVPTMDAAEAFKLIKQQVNVPLVADIHFDYRIALKVAEYGVDCLRINPGNIGNEERIRMVVDCARDKNIPIRIGVNAGSLEKDLQEKYGEPTPQALLESAMRHVDHLDRLNFDQFKVSVKASDVFLAVESYRLLAKQIDQPLHLGITEAGGARSGAVKSAIGLGLLLSEGIGDTLRVSLAADPVEEIKVGFDILKSLRIRSRGINFIACPTCSRQEFDVIGTVNALEQRLEDIITPMDVSIIGCVVNGPGEALVSTLGVTGGNKKSGLYEDGVRKDRLDNNDMIDQLEARIRAKASQLDEARRIDVQQVEK
B2: ART1 (Homo sapiens, UniProt P52961); chain QSHPITRRDLFSQEIQLDMALASFDDQYAGCAAAMTAALPDLNHTEFQANQVYADSWTLASSQWQERQARWPEWSLSPTRPSPPPLGFRDEHGVALLAYTANSPLHKEFNAAVREAGRSRAHYLHHFSFKTLHFLLTEALQLLGSGQRPPRCHQVFRGVHGLRFRPAGPRATVRLGGFASASLKHVAAQQFGEDTFFGIWTCLGAPIKGYSFFPGEEEVLIPPFETFQVINASRLAQGPARIYLRALGKHSTYNCEYIKDKKCKSGPCHLDNS
B3: enzyme (Schizosaccharomyces pombe, UniProt P78804); chain MSTPYEPEFQQAYKEIVGSIESSKLFEVHPELKRVLPIISIPERVLEFRVTWEDDKGNCRVNTGYRVQFNSALGPYKGGLRFHPSVNLSILKFLGFEQIFKNALTGLPMGGGKGGSDFDPKGKSDNEIRRFSQAFMRQLFRYIGPQTDVPAGDIGVTGFVVMHMFGEYKRLRNEYSGVVTGKHMLTGGSNIRPEATGYGVVYYVKHMIEHRTKGAETLKGKRVAISGSGNVAQYAALKCIQEGAIVKSISDSKGVLIAKTAEGLVPEEIHEIMALKEKRASIADSASLCKKHHYIAGARPWTNVGEIDIALPCATQNEVSGEEAAALIKQGCRYVAEGSNMGSSAEAVEVFEKSRASGEGCWLAPGKAANAGGVAVSGLEMAQNAQFSTWTHAEVDAKLAGIMQNIFEQSTDVASKYCDSGSNNIPSLVDGANIAGFLKVATAMQAVGDWW

For `enzyme (Lactiplantibacillus plantarum, UniProt Q06115)`, the Km was 1120 µM (CC(C)C[C@H](NC(=O)CC[C@@H](C)[C@H]1CC[C@H]2[C@@H]3[C@H](O)C[C@@H]4C[C@H](O)CC[C@]4(C)[C@H]3C[C@H](O)[C@]12C)C(=O)O; pH 6.2, 37 °C).
`gdh N192L (Bacillus subtilis)` has a Km of 1200 µM (NC(=O)c1ccc[n+]([C@@H]2O[C@H](COP(=O)(O)OP(=O)(O)OC[C@H]3O[C@@H](n4cnc5c(N)ncnc54)[C@H](O)[C@@H]3O)[C@@H](O)[C@H]2O)c1; pH 7, 40 °C).
With `B1 (ispG)` the Km was 311 µM (C[C@@]1(CO)OP(=O)(O)OP(=O)(O)OC[C@H]1O).
For `ABCB1 (Homo sapiens, UniProt P08183)`, the Km was 0.325 µM (C=C[C@@H]1C[C@]1(NC(=O)[C@@H]1C[C@@H]2CN1C(=O)[C@H](C(C)(C)C)NC(=O)O[C@@H]1C[C@H]1CCCCCc1nc3ccc(OC)cc3nc1O2)C(=O)NS(=O)(=O)C1CC1; 37 °C).
The Km of `B2 (ART1)` is reported as 6300 µM (CC(=O)N[C@@H](CCCNC(=N)N)C(=O)O; pH 7.5, 25 °C, HEPES 50 mM, with: saturating NAD+).
With `B3 (enzyme)` the Km was 2600 µM (NC(=O)c1ccc[n+]([C@@H]2O[C@H](COP(=O)(O)OP(=O)(O)OC[C@H]3O[C@@H](n4cnc5c(N)ncnc54)[C@H](O)[C@@H]3O)[C@@H](O)[C@H]2O)c1; pH 7, 30 °C, apparent).
With `spt R378K (Sphingomonas paucimobilis)` the Km was 97 µM (CCCCCCCCCCCCCC(=O)SCCNC(=O)CCNC(=O)[C@H](O)C(C)(C)COP(=O)(O)OP(=O)(O)OC[C@H]1O[C@@H](n2cnc3c(N)ncnc32)[C@H](O)[C@@H]1OP(=O)(O)O; with: PLP).
The Km of `acmB (Sterolibacterium denitrificans, UniProt A9XWD7)` is reported as 4.4 µM (CC(=O)[C@H]1CC[C@H]2[C@@H]3CCC4=CC(=O)CC[C@]4(C)[C@H]3CC[C@]12C; pH 6.5, with: DCPIP 0.1–0.3 mM).
`PYCR2 (Homo sapiens, UniProt Q96C36)` has a Km of 298 µM (NC(=O)C1=CN([C@@H]2O[C@H](COP(=O)(O)OP(=O)(O)OC[C@H]3O[C@@H](n4cnc5c(N)ncnc54)[C@H](O)[C@@H]3O)[C@@H](O)[C@H]2O)C=CC1; pH 7.5, 37 °C, apparent, cofactor varied, with: DL-P5C 5000 µM).

Excerpt of the above:
`gdh N192L (Bacillus subtilis)` has a Km of 1200 µM (NC(=O)c1ccc[n+]([C@@H]2O[C@H](COP(=O)(O)OP(=O)(O)OC[C@H]3O[C@@H](n4cnc5c(N)ncnc54)[C@H](O)[C@@H]3O)[C@@H](O)[C@H]2O)c1; pH 7, 40 °C).
